Measured values from different studies.
Numbered parts are unrelated; each lists some results of a single study.

Series 1
Target: Histone acetyltransferase KAT6A, both winged helices, GST fusion (KAT6A, Homo sapiens, UniProt Q92794, residues 1-181)
Technique: protein binding microarray
Form: double-stranded DNA, one strand shown
Sample: in vitro
Concentration: not given
Notes: 8-mer, flanks averaged, mean of 2 arrays, mostly near background
Reference: not given
Direction: higher = stronger binding
Residues (chain): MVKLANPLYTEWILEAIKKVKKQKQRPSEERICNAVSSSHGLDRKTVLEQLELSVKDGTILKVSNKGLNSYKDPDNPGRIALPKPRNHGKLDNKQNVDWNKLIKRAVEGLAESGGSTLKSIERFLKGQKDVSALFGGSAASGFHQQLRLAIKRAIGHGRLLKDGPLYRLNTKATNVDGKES
`AACAATAA` gave an E-score of 0.0209.
With `CTTCATCA` the E-score was -0.0938.
For `CGTGCGTC`, the E-score was 0.249.
The E-score of `CCTGATCC` is reported as -0.189.

Series 2
Target: Interferon regulatory factor 7, full length, phosphomimetic (IRF7, Homo sapiens, UniProt Q92985, residues 1-503, S471D/S472D/S475D/S476D/S477D/S483D/S484D/S487D)
Technique: protein-binding microarray
Form: double-stranded DNA, one strand shown
Sample: in vitro
Concentration: 2200 nM top
Notes: 60-bp whole probe
With: salmon DNA 0.4 mg/ml
Reference: random background probes
Direction: higher = stronger binding
Shared flanks, not repeated: GCCTAGCAC … GTCTTGATTCGCTTGACGCTGCTG
Target sequence (chain): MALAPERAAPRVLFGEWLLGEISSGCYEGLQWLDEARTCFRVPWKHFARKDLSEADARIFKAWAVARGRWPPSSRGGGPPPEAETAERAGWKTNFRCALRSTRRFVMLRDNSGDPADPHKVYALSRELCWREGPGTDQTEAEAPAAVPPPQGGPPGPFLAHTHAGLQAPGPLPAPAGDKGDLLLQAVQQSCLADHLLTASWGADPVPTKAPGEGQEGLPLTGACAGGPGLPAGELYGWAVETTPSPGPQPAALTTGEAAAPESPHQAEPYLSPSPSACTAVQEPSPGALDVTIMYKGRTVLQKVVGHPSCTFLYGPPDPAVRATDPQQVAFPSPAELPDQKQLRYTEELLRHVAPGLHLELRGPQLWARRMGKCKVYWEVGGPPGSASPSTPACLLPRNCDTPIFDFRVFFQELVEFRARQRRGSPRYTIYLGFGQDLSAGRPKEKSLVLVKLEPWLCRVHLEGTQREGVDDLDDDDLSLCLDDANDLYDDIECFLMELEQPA
`TTAGATCTCAGTATCGATAAGTGCTAG`: “fitted relative affinity” -0.0504 z-score.
`GACGGGATCGGGTTTCGGGACGTGCTA`: “fitted relative affinity” 0.737 z-score.
Under “fitted relative affinity”, `TCACATTCCCCATTGTGACTGTGCTAG` is recorded as 2.95 z-score.
For `GTCGGACTGGGACTGGGGACGTGCTAG`, “fitted relative affinity” read -0.516 z-score.
`TTAGGTATCGGTATCGGTCAGTGCTAG` — result for “fitted relative affinity”: 0.534 z-score.
`TTAGGTCTCGGACTGGGTCAGTGCTAG`: “fitted relative affinity” -0.423 z-score.

Series 3
Target: PABPC1L2, full length, GST fusion (mouse, UniProt A0ABA7IW68)
Technique: RNAcompete
Form: RNA
Sample: in vitro
Concentration: 20 nM
Notes: 7-mer, probes averaged, single round
Reference: mean of 7-mers
Direction: higher = stronger binding
Construct (chain): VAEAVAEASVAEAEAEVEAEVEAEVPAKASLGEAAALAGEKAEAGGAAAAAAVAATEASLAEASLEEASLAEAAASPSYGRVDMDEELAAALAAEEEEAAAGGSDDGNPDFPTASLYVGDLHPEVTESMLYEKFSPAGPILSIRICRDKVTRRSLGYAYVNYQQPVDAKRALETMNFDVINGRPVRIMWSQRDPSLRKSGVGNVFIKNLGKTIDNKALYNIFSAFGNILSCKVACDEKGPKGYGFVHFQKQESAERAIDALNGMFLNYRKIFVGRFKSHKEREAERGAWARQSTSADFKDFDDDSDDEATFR
`GCGAGUU` gave a 7-mer Z-score of -0.202.
`AUCUGUG` has a 7-mer Z-score of -0.251.
`GCCAUGG` has a 7-mer Z-score of -0.271.
For `GACUGAC`, the 7-mer Z-score was -0.0935.

Mixed results
With `PhoQ, residues 284 288 289 292 302 303 GANMMA` the fold induction was 8.81 (PhoP, residues 12 14 15 18 19 NHFIF (Escherichia coli, UniProt P23836); Sort-seq, item: YFP reporter; E. coli; PhoQ-PhoP variant library, with: 10 µM Mg2+; reference: high Mg2+ state, higher = stronger signaling).

Excerpt of the above (series 2):
`TTAGGTCTCGGACTGGGTCAGTGCTAG`: “fitted relative affinity” -0.423 z-score.
